Measured values of several laboratories.
Numbered parts are unrelated; each lists some results of a single study. Substitutions count along the parent as printed.

Block 1 — target: CCNB3, cyclin fold, Cln2 fusion (human); method: yeast growth competition, sequencing; medium: yeast; setting: weak parent motif; baseline: not given; direction: higher = stronger binding; endpoint: normalised enrichment score
Starting sequence: CDKN1A docking peptide (human); SKACRRLFGPVDS
SKACRELFGPVDS [R6E]: -0.0363
SKACRRLFGPVGS [D12G]: 0.311
SKAVRRLFGPVDS [C4V]: 0.577
SKACRRIFGPVDS [L7I]: 0.188
SKACRALFGPVDS [R6A]: 0.119
SKACRRLIGPVDS [F8I]: 0.254
SKATRRLFGPVDS [C4T]: 0.481
SVACRRLFGPVDS [K2V]: 0.714
SKACFRLFGPVDS [R5F]: 0.245
SKACRRLFGMVDS [P10M]: 0.424
SKACRRLFGPVQS [D12Q]: 0.0767
SKACRRLFWPVDS [G9W]: 0.64
SNACRRLFGPVDS [K2N]: 0.703
SKACRRLFGYVDS [P10Y]: 0.384
SKCCRRLFGPVDS [A3C]: 0.678
SKAARRLFGPVDS [C4A]: 0.427
SKACRRGFGPVDS [L7G]: -0.196
SKACRRLDGPVDS [F8D]: 0.137

Block 2 — target: ATF3, bZIP domain (human); method: DHFR protein complementation; medium: yeast; baseline: wild-type JUN-FOS pair; direction: higher = stronger binding; endpoint: binding fitness
Setting: single substitutions, most at no-binding floor
Starting sequence: JUN, bZIP domain (human); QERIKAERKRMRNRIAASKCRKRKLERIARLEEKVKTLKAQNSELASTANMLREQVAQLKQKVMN; partner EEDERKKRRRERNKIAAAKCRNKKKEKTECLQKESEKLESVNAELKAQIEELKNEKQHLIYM
L45G: -1.15 natural log
T37G: -0.125 natural log
N42H: -0.146 natural log
R53T: -0.393 natural log
Q41G: -0.694 natural log
E44D: -0.313 natural log
A46C: -0.295 natural log
E54S: -0.224 natural log
A46H: -0.206 natural log
E44F: -0.248 natural log
Q41M: -0.188 natural log
R30W: -0.0935 natural log
S43R: 0.041 natural log
K34A: -0.319 natural log
T48Q: -0.0488 natural log

Block 3 — method: RNA Bind-n-Seq; molecule type: RNA; medium: in vitro; concentration: 365 nM; baseline: no-protein control; direction: higher = stronger binding; endpoint: RBNS enrichment (R)
Target: RNA binding protein fox-1 homolog 2, RRM domain, GST-SBP tag (RBFOX2, Homo sapiens, UniProt O43251-10, residues 100-194)
Setting: natural RNA segment, single round, ends assumed
Shared flanks, not repeated: GGGAGUUCUACAGUCCGACGAUC … UGGAAUUCUCGGGUGCCAA
Construct (chain): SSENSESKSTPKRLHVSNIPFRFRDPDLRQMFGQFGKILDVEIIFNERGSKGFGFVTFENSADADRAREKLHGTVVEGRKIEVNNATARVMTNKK
CAAGUUUGAAAAGUUCAAAUUAACCACUUUUGACUAGGUAAGUCUUUCUAAAAACCAUUUAAAGCUAACUGGGUCUUAGCAUCCUCCUGUGUAUGGAAGAGACAGGUGAC: 0.406
UCAGCCCCCUCAAGAAAGUGUGGAACCUGCAGGGCCUCUAAUGUGCUGGGCCCCAGUCUCCAAGGGCGAGAAUGGACCCUGAUGGACUUGGACAUGGAGCUGUCCUUGGG: 0.961
AGCCCAUGGCCAAGAAGCCUAACAGUAGGCUCCAUACCAGGCCUCAGCCUGAUACAGCAUUACUGUUGUCACCAGUUGACUGGAAUUGUAACCUUUUACUUGGGAAUGUG: 0.288
CCUUAGGCUGGAUCCUGCUCCUCUGUGAGGAGUAAGGGUGCCUAAUAAAUACAUUUCUGCUUUAUUAGCUCUUGCUUUGGGCUUGUGGUUUCUGACUGGGUUCUUACUUC: 0.286
AACAUCCAGCUUUUUUCCUGCCUCCCUCUGAAUUCUCCAGGAUCUGCUUCACCCUCACCACCACCACUUCCAAGGAUCAAAGCUGUCUACAGCUCCAUCAAAACCUUUCA: 0.772
AGCGCCAGUACUAGAGCCUGCUUAUCCACAUUUGCCCUGGACAGGAGCAGGAGGAAGUCCACUUCUGUACCGGCAGACAGAGCAUGUGAACACAAAACACAUUUCUAUGG: 0.288
GACUGGAGACAUUUUCUUGUGUGGUUUUCUGGGUUUCGUCCUUCUGCAGCUGUCAUGGCUUUACAGUCACUUGGGAAAUGCAAGCCACUGUUAAAGCUUUGUCCUGUUCA: 0.278
GAGCACUUUCCUAACUACUGCAGACAGACUGACUGCCAAGGCACACUGUGCUCACGACUGGAAAGUAGCCUUUUUCUUCUAUCAAUGUUUACCAUAAAGUUCCUUUCUCA: 0.327

Other studies, line by line
PhoQ, residues 284 288 289 292 302 303 AANNSF — fold induction (PhoP, residues 12 14 15 18 19 LHHVQ (Escherichia coli, UniProt P23836); Sort-seq, refers to: YFP reporter; E. coli; PhoQ-PhoP variant library, added: 10 µM Mg2+; baseline: high Mg2+ state, higher = stronger signaling): 26.2

Repeated from above (block 3):
AGCCCAUGGCCAAGAAGCCUAACAGUAGGCUCCAUACCAGGCCUCAGCCUGAUACAGCAUUACUGUUGUCACCAGUUGACUGGAAUUGUAACCUUUUACUUGGGAAUGUG: 0.288
CCUUAGGCUGGAUCCUGCUCCUCUGUGAGGAGUAAGGGUGCCUAAUAAAUACAUUUCUGCUUUAUUAGCUCUUGCUUUGGGCUUGUGGUUUCUGACUGGGUUCUUACUUC: 0.286
AACAUCCAGCUUUUUUCCUGCCUCCCUCUGAAUUCUCCAGGAUCUGCUUCACCCUCACCACCACCACUUCCAAGGAUCAAAGCUGUCUACAGCUCCAUCAAAACCUUUCA: 0.772
AGCGCCAGUACUAGAGCCUGCUUAUCCACAUUUGCCCUGGACAGGAGCAGGAGGAAGUCCACUUCUGUACCGGCAGACAGAGCAUGUGAACACAAAACACAUUUCUAUGG: 0.288
GACUGGAGACAUUUUCUUGUGUGGUUUUCUGGGUUUCGUCCUUCUGCAGCUGUCAUGGCUUUACAGUCACUUGGGAAAUGCAAGCCACUGUUAAAGCUUUGUCCUGUUCA: 0.278
